Experimental data pooled from the literature.
Lines come from different studies, so protocols differ. ± marks the error that the study gave.
ABCB1: ATP-dependent translocase ABCB1 (ABCB1, Homo sapiens, UniProt P08183)
Chain of UniProt P08183 (whole entry, looked up): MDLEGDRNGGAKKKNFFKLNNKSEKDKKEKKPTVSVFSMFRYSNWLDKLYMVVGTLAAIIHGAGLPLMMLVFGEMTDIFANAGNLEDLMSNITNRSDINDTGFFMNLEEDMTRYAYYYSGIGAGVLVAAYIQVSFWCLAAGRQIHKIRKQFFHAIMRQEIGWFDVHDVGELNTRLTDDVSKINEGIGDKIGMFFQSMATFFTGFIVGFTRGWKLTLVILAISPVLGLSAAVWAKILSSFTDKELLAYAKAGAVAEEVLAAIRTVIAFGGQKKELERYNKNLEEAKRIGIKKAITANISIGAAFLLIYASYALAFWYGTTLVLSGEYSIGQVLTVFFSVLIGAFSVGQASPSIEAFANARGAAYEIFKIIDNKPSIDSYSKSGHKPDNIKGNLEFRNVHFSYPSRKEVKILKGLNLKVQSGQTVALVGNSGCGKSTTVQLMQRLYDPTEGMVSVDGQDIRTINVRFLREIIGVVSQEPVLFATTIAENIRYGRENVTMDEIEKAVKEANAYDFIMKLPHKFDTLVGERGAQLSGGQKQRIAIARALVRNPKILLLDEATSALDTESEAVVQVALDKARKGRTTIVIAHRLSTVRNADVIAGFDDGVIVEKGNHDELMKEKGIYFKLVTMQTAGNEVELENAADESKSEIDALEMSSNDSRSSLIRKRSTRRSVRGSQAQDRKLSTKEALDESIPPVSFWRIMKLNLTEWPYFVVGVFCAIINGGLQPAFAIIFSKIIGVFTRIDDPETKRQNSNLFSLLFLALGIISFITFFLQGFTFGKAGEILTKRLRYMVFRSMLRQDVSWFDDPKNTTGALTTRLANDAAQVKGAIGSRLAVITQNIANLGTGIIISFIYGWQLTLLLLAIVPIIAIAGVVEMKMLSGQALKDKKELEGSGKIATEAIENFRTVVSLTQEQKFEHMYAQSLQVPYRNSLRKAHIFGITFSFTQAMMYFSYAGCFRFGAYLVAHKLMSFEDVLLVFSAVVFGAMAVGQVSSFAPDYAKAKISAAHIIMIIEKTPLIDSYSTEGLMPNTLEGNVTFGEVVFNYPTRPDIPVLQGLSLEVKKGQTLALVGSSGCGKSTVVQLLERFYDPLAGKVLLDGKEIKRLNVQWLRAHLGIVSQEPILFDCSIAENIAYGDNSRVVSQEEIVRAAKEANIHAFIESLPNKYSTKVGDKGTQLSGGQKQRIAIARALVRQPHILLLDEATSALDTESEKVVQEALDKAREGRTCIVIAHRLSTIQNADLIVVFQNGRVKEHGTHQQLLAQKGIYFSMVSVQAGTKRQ
Chain of UniProt P27487 (whole entry, looked up): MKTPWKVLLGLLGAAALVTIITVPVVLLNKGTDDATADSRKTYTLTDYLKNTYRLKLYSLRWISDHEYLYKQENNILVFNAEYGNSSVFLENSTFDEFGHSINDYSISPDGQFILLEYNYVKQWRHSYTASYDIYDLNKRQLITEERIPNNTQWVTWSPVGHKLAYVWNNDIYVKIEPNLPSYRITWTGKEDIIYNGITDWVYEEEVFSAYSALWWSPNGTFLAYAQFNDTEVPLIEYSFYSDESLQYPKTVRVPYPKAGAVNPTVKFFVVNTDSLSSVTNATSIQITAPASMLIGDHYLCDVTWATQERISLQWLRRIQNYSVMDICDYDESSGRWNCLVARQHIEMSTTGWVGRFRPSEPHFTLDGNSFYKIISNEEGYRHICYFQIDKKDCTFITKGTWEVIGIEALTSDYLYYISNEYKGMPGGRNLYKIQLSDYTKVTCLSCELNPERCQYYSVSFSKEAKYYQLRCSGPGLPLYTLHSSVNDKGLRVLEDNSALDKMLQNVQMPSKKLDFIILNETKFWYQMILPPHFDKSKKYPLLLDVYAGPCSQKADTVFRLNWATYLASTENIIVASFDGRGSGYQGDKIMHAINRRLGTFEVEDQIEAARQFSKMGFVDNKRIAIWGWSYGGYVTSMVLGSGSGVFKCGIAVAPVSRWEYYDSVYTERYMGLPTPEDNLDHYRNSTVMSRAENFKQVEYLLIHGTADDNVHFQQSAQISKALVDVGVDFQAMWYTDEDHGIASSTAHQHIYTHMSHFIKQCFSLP
Chain of UniProt P08684 (whole entry, looked up): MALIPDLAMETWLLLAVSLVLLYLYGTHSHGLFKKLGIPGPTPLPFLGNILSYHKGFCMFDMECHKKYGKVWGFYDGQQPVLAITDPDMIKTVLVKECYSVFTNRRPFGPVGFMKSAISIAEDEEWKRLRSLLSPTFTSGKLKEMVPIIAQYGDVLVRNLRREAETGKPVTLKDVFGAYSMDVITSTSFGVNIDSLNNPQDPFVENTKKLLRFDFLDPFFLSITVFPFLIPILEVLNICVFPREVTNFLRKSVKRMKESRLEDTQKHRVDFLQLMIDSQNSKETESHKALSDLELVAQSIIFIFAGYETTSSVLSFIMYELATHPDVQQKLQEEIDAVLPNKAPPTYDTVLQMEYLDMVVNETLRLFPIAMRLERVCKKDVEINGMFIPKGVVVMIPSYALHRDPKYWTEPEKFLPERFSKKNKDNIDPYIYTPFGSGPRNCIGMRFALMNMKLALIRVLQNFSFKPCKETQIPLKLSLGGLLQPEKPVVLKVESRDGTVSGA

Compound | target or system | assay | test system | setting | scale | quantity | result
Cc1cc(C(=O)NC(C)(C)COc2cccc3c2C(N)=NS(=O)(=O)N3)cc(C)n1 | Salmonella typhimurium | Ames test, initial | TA98 | 500 µg/plate | reference: solvent control | revertant ratio | 1.3
COC(=O)[C@@H]1[C@H]2CC[C@@H](C[C@@H]1O)N2C | – | – | rat, whole blood | 1000 nM, 4 months, -80 °C, long-term storage | – | stability bias | 0.02%
CN(C)CCCN1c2ccccc2Sc2ccccc21 | African green monkey cells | – | – | 5 days | – | CC50 | 25.7 µM
O=[N+]([O-])c1ccc(N2CCC(NCCC(O)c3ccc(F)c4ccccc34)CC2)c(C(F)(F)F)c1 (centres unmarked) | Salmonella typhimurium | genotoxicity, SOS/umu test | TA1535/pSK1002 | 0.008 mg/mL, 4 h, with S9, lower range | – | induction factor | 0.9
O=C1c2c(O)c(=O)ccn2N([C@@H]2c3ccccc3SCc3c2ccc(F)c3F)[C@@H]2COCCN12 | – | – | BALB/c mice, plasma | oral, 50 mg/kg baloxavir marboxil, 10 h | – | plasma concentration | 43.6 ng/mL
[Cl-].[Cl-].[Pt+2].[Ru+2].c1ccc(-c2nccnc2-c2ccccn2)nc1.c1cnc2c(c1)ccc1cccnc12.c1cnc2c(c1)ccc1cccnc12 | Danio rerio | – | embryos | 75 µM, 12 h | – | survival rate | 63.3 ± 3.3%
CCOC(=O)[C@H]1O[C@@H]1C(=O)N[C@@H](CC(C)C)C(=O)NCCC(C)C | African green monkey cells | – | – | 5 days | – | CC50 | > 100 µM
COC(=O)[C@H]1[C@@H](OC(=O)c2ccccc2)C[C@@H]2CC[C@H]1N2C | – | – | rat, whole blood | 1000 nM, 4 freeze-thaw cycles | – | stability bias | -0.16%
O=C(c1ccc(F)c(F)c1Nc1ccc(I)cc1F)N1CC(O)([C@@H]2CCCCN2)C1 | – | – | patients aged 2 to 6 years | oral, dose not given | – | treatment-related adverse events | 90%
CN1CCN(CC/C=C2/c3ccccc3Sc3ccc(S(=O)(=O)N(C)C)cc32)CC1 | African green monkey cells | – | – | 5 days | – | CC50 | 4.96 µM
CC(=O)O[C@H]1C=C[C@H]2[C@H]3Cc4ccc(O)c5c4[C@@]2(CCN3C)[C@H]1O5 | – | – | rat whole blood | 500 nM, 4 freeze-thaw cycles | – | stability bias | 4.25%
CC(C)CC(=O)OC[C@H]1O[C@@](C#N)(c2ccc3c(N)ncnn23)[C@H](O)[C@@H]1O | ABCB1 | – | Caco-2 | 90 µM, with: zosuquidar 25 µM | – | Papp A to B | 0.353 ×10⁻⁶ cm/s
O=C1c2c(O)cccc2Cc2cccc(O)c21 | African green monkey cells | – | – | 5 days | – | CC50 | > 100 µM
Cc1ncc2n1-c1ccc(Cl)cc1C(c1ccccc1F)=NC2 | Cytochrome P450 3A4 (CYP3A4, Homo sapiens, UniProt P08684) | – | human, plasma | oral, 2 mg, day 1, alone, arithmetic mean | – | Cmax | 8.03 ng/mL
CC[C@H](C)[C@H](NC(=O)[C@H](Cc1ccccc1)NC(=O)[C@H](CCC(=O)O)NC(=O)[C@H](CCCCN)NC(=O)[C@H](C)NC(=O)[C@H](C)NC(=O)[C@H](CCC(N)=O)NC(=O)CNC(=O)[C@H](CCC(=O)O)NC(=O)[C@H](CC(C)C)NC(=O)[C@H](Cc1ccc(O)cc1)NC(=O)[C@H](CO)NC(=O)[C@H](CO)NC(=O)[C@@H](NC(=O)[C@H](CC(=O)O)NC(=O)[C@H](CO)NC(=O)[C@@H](NC(=O)[C@H](Cc1ccccc1)NC(=O)[C@@H](NC(=O)CNC(=O)[C@H](CCC(=O)O)NC(=O)[C@H](C)NC(=O)N(N)Cc1c[nH]cn1)[C@@H](C)O)[C@@H](C)O)C(C)C)C(=O)N[C@@H](C)C(=O)N[C@@H](Cc1c[nH]c2ccccc12)C(=O)N[C@@H](CC(C)C)C(=O)N[C@H](C(=O)N[C@@H](CCCNC(=N)N)C(=O)NCC(=O)N[C@@H](CCCNC(=N)N)C(=O)NCC(=O)O)C(C)C | DPP4 (Homo sapiens, UniProt P27487) | HPLC-UV | Tris-HCl | 0.1 mM, 1 h, pH 7.4, 37 °C, with: DPP4 16 nM | – | remaining peptide | 100%
Cc1ncc2n1-c1ccc(Cl)cc1C(c1ccccc1F)=NC2 | – | – | wild-type mice, plasma | intravenous, 0.3 mg/kg, with: 3-day PB, BC 500 mg/kg and PCN 10 mg/kg | – | clearance | 363 ± 51 mL/min
CC1=C(/C=C/C(C)=C/C=C/C(C)=C/C(=O)Nc2ccc(O)cc2)C(C)(C)CCC1 | African green monkey cells | – | – | 5 days | – | CC50 | 5.01 µM
CC(C)CN(C[C@@H](O)[C@H](Cc1ccccc1)NC(=O)O[C@H]1CO[C@H]2OCC[C@H]21)S(=O)(=O)c1ccc(N)cc1 | ABCB1 | transport, inhibitor | – | 100 µM, 5 (unit not given), pH 7, with: NMN | – | inhibition | 86.3%
CO[C@H]1/C=C/O[C@@]2(C)Oc3c(C)c(O)c4c(O)c(c(/C=N/N5CCN(C6CCCC6)CC5)c(O)c4c3C2=O)NC(=O)/C(C)=C\C=C\[C@H](C)[C@H](O)[C@@H](C)[C@@H](O)[C@@H](C)[C@H](OC(C)=O)[C@@H]1C | Syrian hamster cells | – | – | – | – | CC50 | 128 µM
CN1[C@H]2CC[C@@H]1[C@@H](C(=O)O)[C@@H](OC(=O)c1ccccc1)C2 | – | – | rat, whole blood | 1000 nM, 4 freeze-thaw cycles | – | stability bias | 7.04%
COc1ccc(-n2nc(C(C)=O)s/c2=N\N=C(/C)c2ccc(NC(C)=O)cc2)cc1 | WI-38 | – | – | 0.312 µM, 24 (unit not given) | – | viability | 3.68%
O=c1ccc2ccccc2o1 | NHEK | cell count | – | concentration not given, 6 h, pH2AX and pH3 panel | – | chance response | 0.05%
CN1CC[C@]23c4c5ccc(O)c4O[C@H]2[C@@H](O[C@@H]2O[C@H](C(=O)O)[C@@H](O)[C@H](O)[C@H]2O)C=C[C@H]3[C@H]1C5 | – | – | rat, whole blood | 500 nM, 4 months, -80 °C, long-term storage | – | stability bias | -1.26%
NC(=O)C1(N2CCCCC2)CCN(CCCN2c3ccccc3CCc3ccccc32)CC1 | African green monkey cells | – | – | 5 days | – | CC50 | 8.61 µM
COc1cccc(-c2n[nH]c(SCc3ccccn3)n2)c1OC | Salmonella typhimurium | Ames test, plate incorporation | TA98 | 0.50 mg/plate, without S9 | – | revertant colonies per plate | 22
CN1CC[C@]23c4c5ccc(O[C@@H]6O[C@H](C(=O)O)[C@@H](O)[C@H](O)[C@H]6O)c4O[C@H]2[C@@H](O)C=C[C@H]3[C@H]1C5 | – | – | rat, whole blood | 10 nM, 4 months, -80 °C, long-term storage | – | stability bias | 19.3%
O=c1[nH]c2ccccc2n1CCCN1CCN(C(c2ccccc2)c2ccccc2)CC1 | African green monkey cells | – | – | 5 days | – | CC50 | 12.6 µM
COC(=O)[C@H]1[C@@H](OC(=O)c2ccccc2)C[C@@H]2CC[C@H]1N2 | – | – | rat whole blood | 500 nM, 4 months, -80 °C | – | stability bias | 14.8%
COc1cc2c(cc1OC)C(c1cccc(Cl)c1)=NN=C(C)C2 | African green monkey cells | – | – | 5 days | – | CC50 | > 100 µM
